{"data": "Assay results collected from several papers", "target": "Serine/threonine-protein kinase MRCK beta (CDC42BPB, Homo sapiens, UniProt Q9Y5S2)", "note": "Protocols differ between the studies behind these lines."}
{"Structure (SMILES)": "CN1CC[C@@H](COc2cnc(C#N)cc2-c2ccn3nc(NC(=O)C4CC4)cc3c2)C1", "assay": "inhibitor, KinaseProfiler panel", "conditions": "1 µM", "quantity": "inhibition", "value": "-5%"}
{"Structure (SMILES)": "Nc1ncc2c(n1)-c1c([nH]c3ccc(C4=CCOCC4)cc13)CCC2", "assay": "binding, competition with immobilised ligand", "conditions": "1 µM", "quantity": "remaining binding", "value": "90%"}
{"Structure (SMILES)": "CN1CCN(Cc2ccc(-c3ccc(CO[C@H]4CCC[C@@H]4NC(=O)c4cc(-c5cnn(C)c5)cnc4N)cc3)cc2)CC1", "assay": "enzyme activity, inhibitor", "conditions": "0.1 µM", "quantity": "inhibition", "value": "0%"}
{"Structure (SMILES)": "C=CC(=O)Nc1cccc(-c2cnc3[nH]cc(C(=O)NC(C)(C)C)c3n2)c1", "assay": "enzyme activity, inhibitor", "conditions": "0.1 µM", "quantity": "inhibition", "value": "13%"}
{"Structure (SMILES)": "CNC(=O)C1CCN(c2cc(C)c(F)cc2NC(=O)c2ccc(-c3cc(O)ccc3C)c(C)c2)CC1", "assay": "binding, competition with immobilised ligand", "conditions": "1 µM", "quantity": "remaining binding", "value": "100%"}
{"Structure (SMILES)": "CNC(=O)C[C@H](Cc1ccc(C#N)cc1)NC(=O)c1cc(-c2ccc(CN[C@H](C)c3ccc(C)cc3)o2)ccc1Cl", "assay": "enzyme activity, inhibitor", "conditions": "1 µM", "quantity": "activity vs control", "value": "103%"}
{"Structure (SMILES)": "COc1c(OCCCN2CCOCC2)ccc2c1N=C(NC(=O)c1cnc(N)nc1)N1CCN=C21", "assay": "kinase activity, inhibitor", "conditions": "1 µM", "scale": "baseline: untreated control", "quantity": "remaining activity", "value": "95%"}
{"Structure (SMILES)": "C=CC(=O)N1CCCC(n2c(=O)c3ncccc3n(Cc3ccc(Oc4ccccc4)cc3)c2=O)C1 (stereo not shown)", "assay": "cell-free assay, competition with immobilised ligand", "conditions": "1 µM", "quantity": "remaining binding", "value": "97%"}
{"Structure (SMILES)": "Cc1ccc(-c2c(/C=C(\\C#N)C(=O)NC(C)C)n(CCCO)c3ncnc(N)c23)cc1", "assay": "cell-free assay, competition with immobilised ligand", "conditions": "1 µM", "quantity": "remaining binding", "value": "96%"}
{"Structure (SMILES)": "NC(=O)[C@@H](O)C[C@H]1CCc2sc3ncnc(O[C@H]4CC[C@H](N5CCOCC5)CC4)c3c21", "assay": "enzyme activity, inhibitor", "conditions": "10 µM", "quantity": "inhibition", "value": "3%"}
{"Structure (SMILES)": "CCn1cc(C(=O)O)c(=O)c2c(N)c(F)c(NC3CCCCC3)cc21", "assay": "kinase activity", "conditions": "0.1 µM, added: ATP at Km", "quantity": "inhibition", "value": "10%"}
{"Structure (SMILES)": "CNC1C[S+]2CC[S+]3CC[S+](C1)[Ru-4]321([N]=C=S)[n]2c3ccc(OC)cc3c3c4c(c5cc(F)c[n+]1c5c32)C(=O)NC4=O (stereo not shown)", "assay": "KinomeScan", "conditions": "0.1 µM", "scale": "baseline: untreated", "quantity": "remaining binding", "value": "100%"}
{"Structure (SMILES)": "COc1cc(Nc2nccc(-c3cnn4nc(OC)ccc34)n2)cc(C(F)(F)F)c1", "assay": "binding, competition with immobilised ligand", "conditions": "1 µM", "quantity": "remaining binding", "value": "88%"}
{"Structure (SMILES)": "Cc1cccc(O[C@H]2CCC[C@@H](C(C)CNCc3ccncc3)C2)c1 (relative stereo)", "assay": "enzyme activity, inhibitor", "conditions": "1 µM", "quantity": "inhibition", "value": "4%"}
{"Structure (SMILES)": "COc1ccc(O)cc1-c1c[nH]c2ncc(-c3cncc(C(=O)N(C)C)c3)cc12", "assay": "binding, competition with immobilised ligand", "conditions": "0.2 µM", "quantity": "inhibition", "value": "19.4%"}
{"Structure (SMILES)": "C=CC(=O)N1Cc2nc(-c3cc(-c4cc(Cl)cnc4Cl)c(F)cc3F)n(-c3ccncn3)c2C1", "assay": "cell-free assay, inhibitor", "conditions": "1 µM", "quantity": "inhibition", "value": "6.7%"}
{"note": "Excerpt of the above:"}
{"Structure (SMILES)": "C=CC(=O)N1CCCC(n2c(=O)c3ncccc3n(Cc3ccc(Oc4ccccc4)cc3)c2=O)C1 (stereo not shown)", "assay": "cell-free assay, competition with immobilised ligand", "conditions": "1 µM", "quantity": "remaining binding", "value": "97%"}
{"Structure (SMILES)": "COc1cc(Nc2nccc(-c3cnn4nc(OC)ccc34)n2)cc(C(F)(F)F)c1", "assay": "binding, competition with immobilised ligand", "conditions": "1 µM", "quantity": "remaining binding", "value": "88%"}
